Results collected from several papers.
A part holds a random share of what one study measured. ± marks the error that the study gave. Converted amounts (≈) assume the structure as drawn.
Chain of UniProt P14416 (whole entry, looked up): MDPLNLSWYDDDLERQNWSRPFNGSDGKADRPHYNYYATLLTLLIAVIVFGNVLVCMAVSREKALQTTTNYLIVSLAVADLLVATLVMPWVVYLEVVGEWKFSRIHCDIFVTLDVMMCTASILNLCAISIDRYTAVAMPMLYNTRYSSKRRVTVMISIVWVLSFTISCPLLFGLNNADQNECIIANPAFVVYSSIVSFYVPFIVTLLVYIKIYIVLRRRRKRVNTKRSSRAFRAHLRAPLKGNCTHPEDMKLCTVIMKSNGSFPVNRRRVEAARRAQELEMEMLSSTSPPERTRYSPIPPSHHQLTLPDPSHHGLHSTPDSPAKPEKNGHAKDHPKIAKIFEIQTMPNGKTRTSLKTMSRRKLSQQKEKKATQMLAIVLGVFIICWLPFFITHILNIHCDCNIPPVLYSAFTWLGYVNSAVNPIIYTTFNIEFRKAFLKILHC

Sample 1 — time: 18 h; temperature: 37 °C
SMILES: CC[C@H](C)[C@H](NC(=O)[C@H](CC(C)C)NC(=O)[C@H](CCCCN)NC(=O)[C@@H](NC(=O)[C@H](C)NC(=O)[C@H](CCC(=O)O)NC(=O)[C@H](Cc1c[nH]cn1)NC(=O)[C@@H](NC(=O)[C@H](CCCCN)NC(=O)[C@H](CCC(N)=O)NC(=O)[C@H](Cc1ccccc1)NC(=O)[C@@H](NC(=O)[C@H](CCCCN)NC(=O)[C@H](CCCCN)NC(=O)[C@H](CC(C)C)NC(=O)[C@H](C)NC(=O)[C@H](CC(N)=O)NC(=O)[C@@H](N)CC(C)C)C(C)C)[C@@H](C)CC)[C@@H](C)CC)C(N)=O
For Listeria monocytogenes; broth microdilution; KCTC 3710: MIC read 8 µM (≈ 16.8 µg/mL).
It gave 4 µM (≈ 8.42 µg/mL) for MIC (Pseudomonas aeruginosa; 4891, resistant).
It gave 2 µM (≈ 4.21 µg/mL) for MIC (Escherichia coli; CCARM 1238, resistant).

Other studies, line by line
TTR: Transthyretin (TTR, Homo sapiens, UniProt P02766)
With `CC(C)CC(NC(=O)OCc1ccccc1)C(=O)Nc1ccc(C2CC2N)cc1` (stereo not shown) the IC50 was 16.9 ± 2.5 µM (MV4-11 AML cells).
With `Cn1ccc2c(N3CCN(CCCCOc4ccc5c(c4)NC(=O)CC5)CC3)cccc21` the Ki was 0.0112 µM (D(2) dopamine receptor, D2 long isoform (DRD2, Homo sapiens, UniProt P14416)).
For `NC1CC1c1ccc(NC(=O)C(Cc2ccc3ccccc3c2)NC(=O)OCc2ccccc2)cc1` (stereo not shown), the IC50 was 23.2 ± 4.2 µM (NB-4 APL cells).
With `CC(C)C[C@H](NC(=O)[C@@H](CCCCNC(=O)CCOCCOCCOCCN=[N+]=[N-])NC(=O)[C@H](Cc1ccc(O)cc1)NC(=O)[C@H](CO)NC(=O)[C@H](Cc1c[nH]c2ccccc12)NC(=O)[C@H](Cc1c[nH]cn1)NC(=O)[C@@H]1CCC(=O)N1)C(=O)N[C@@H](CCCNC(=N)N)C(=O)N1CCC[C@H]1C(=O)NCC(N)=O` the Kd was over 10 µM (TTR; binding).
`NC1CC1c1ccc(NC(=O)Cc2cccc3ccccc23)cc1` (stereo not shown) gave an IC50 of 21.8 ± 3.1 µM (MV4-11 AML cells).
For `CC[C@H](C)[C@H](NC(=O)[C@H](Cc1ccc(O)cc1)NC(=O)[C@@H]1CCCN1C(=O)[C@H](CCCNC(=N)N)NC(=O)[C@H](CCCNC(=N)N)NC(=O)[C@@H]1CCCN1C(=O)[C@H](CCCCN)NC(=O)[C@H](CC(N)=O)NC(=O)[C@H](CCC(=O)O)NC(=O)[C@H](Cc1ccc(O)cc1)NC(=O)[C@H](CC(C)C)NC(=O)[C@H](CCC(=O)O)NC(=O)CCOCCOCCOCCn1cc(CCCOc2cc(OCCCc3c(C)n[nH]c3C)cc(C(=O)O)c2)nn1)C(=O)N[C@@H](CC(C)C)C(=O)O`, the Kd was 0.46 µM (TTR; binding).
`NC1CC1c1ccc(NC(=O)C(NC(=O)OCc2ccccc2)c2ccccc2)cc1` (stereo not shown) gave an IC50 of 52.3 ± 8.9 µM (MV4-11 AML cells).
